Results pooled from the literature.
Every numbered part comes from another study and shows a few of its results, in no order. Positions count from the first letter of the parent shown.

Block 1 — target: CCNF, cyclin fold, Cln2 fusion (human); method: yeast growth competition, sequencing; matrix: yeast; setting: strong parent motif; relative to: not given; direction: higher = stronger binding; measurement: normalised enrichment score
Parent: INSM1 docking peptide (human); PKAIRKLHFEDEV
Variant = F9D; value = -0.0815
Variant = I4Y; value = 7.15
Variant = D11Q; value = 7.73
Variant = R5I; value = 0.296
Variant = F9P; value = 0.402
Variant = L7I; value = 3.68
Variant = L7H; value = -0.098
Variant = H8D; value = 6.37
Variant = A3R; value = 2.39
Variant = A3N; value = 1.96

Block 2 — method: universal PBM; form: double-stranded DNA, one strand shown; matrix: in vitro; concentration: not given; direction: higher = stronger binding; measurement: E-score
Target: Sal-like protein 4, full length isoform B (SALL4, Homo sapiens, UniProt Q9UJQ4-2, residues 1-616)
Setting: 8-mer, flanks averaged, mean of replicates
Strand = CAAGCTCA; value = -0.33
Strand = CGCACTGC; value = -0.201
Strand = GAAGTTTA; value = 0.181
Strand = ATTGGCAC; value = 0.0331
Strand = ATCAAATG; value = 0.135
Strand = ATTCACGA; value = 0.191
Strand = AGAAACAT; value = 0.302
Strand = GGAAATTA; value = 0.29
Strand = TTCTGCAA; value = 0.137
Strand = ATGCCGAC; value = -0.154
Strand = AGCTCATC; value = -0.223
Strand = ACATACGG; value = -0.0599
Strand = AGGTAAAA; value = 0.147
Strand = AACTCACT; value = -0.0413
Strand = ATTCCCCA; value = -0.0842
Strand = ACACATCC; value = -0.0444
Strand = GCCTCCGC; value = -0.292

Block 3 — method: aptamer microarray, sandwich; form: DNA with 2'F-ANA; matrix: in vitro; concentration: 200 nM; together with: Cy3 exosite-II aptamer, 400 nM; direction: higher = stronger binding; measurement: mean fluorescence intensity; strand: GGTTGGTGTGGTTGG
Target: Prothrombin, mature alpha-thrombin (F2, Homo sapiens, UniProt P00734)
Setting: whole 15-mer aptamer, many near background
Modification = 2'F-ANA at 2 4 6 8 9 10 13 15; value = 110 a.u.
Modification = 2'F-ANA at 1 3 4 5 11 13 15; value = 48.4 a.u.
Modification = 2'F-ANA at 1 2 3 6 8 10 11 15; value = 63.1 a.u.
Modification = 2'F-ANA at 1 2 5 6 11 14; value = 51.9 a.u.
Modification = 2'F-ANA at 2 4 5 6 9 10 11 13 15; value = 53.1 a.u.
Modification = 2'F-ANA at 1 3 8 9 10 14; value = 56.8 a.u.
Modification = 2'F-ANA at 2 3 5 6 7 10 11 12 13 14; value = 46.2 a.u.
Modification = 2'F-ANA at 1 5 7 8 9 13 14; value = 50.6 a.u.
Modification = 2'F-ANA at 2 4 6 8 10 12 13 14 15; value = 65.5 a.u.
Modification = 2'F-ANA at 2 3 4 6 7 9 10 11 12 13 15; value = 179 a.u.
Modification = 2'F-ANA at 1 2 3 9 13 14 15; value = 105 a.u.
Modification = 2'F-ANA at 2 7 9 12; value = 793 a.u.
Modification = 2'F-ANA at 1 2 3 4 6 7 10 12 13 14 15; value = 56.4 a.u.
Modification = 2'F-ANA at 3 4 6 7 11 12 13 15; value = 551 a.u.

Single results of other studies
Molecule = PhoQ, residues 284 288 289 292 302 303 ASVMEA; target = PhoP, residues 12 14 15 18 19 QYCSL (Escherichia coli, UniProt P23836); test = Sort-seq, measured: YFP reporter; test system = E. coli; conditions = PhoQ-PhoP variant library, together with: 10 µM Mg2+; scale = relative to: high Mg2+ state, higher = stronger signaling; measurement = fold induction; value = 12.6

A few entries again (block 2):
Strand = AGCTCATC; value = -0.223
Strand = CGCACTGC; value = -0.201
Strand = AGAAACAT; value = 0.302
Strand = ACACATCC; value = -0.0444
Strand = ATGCCGAC; value = -0.154
Strand = GGAAATTA; value = 0.29
Strand = CAAGCTCA; value = -0.33
